Assay results collected from several papers.
Protocols differ between the studies behind these lines.
Target: Serine/threonine-protein kinase RIO2 (RIOK2, Homo sapiens, UniProt Q9BVS4)

| Structure (SMILES) | assay | setting | scale | remaining binding [%] |
| --- | --- | --- | --- | --- |
| Cc1ccc(-c2c(/C=C(\C#N)C(=O)NC(C)C)n(CCCO)c3ncnc(N)c23)cc1 | cell-free assay, competition with immobilised ligand | 1 µM |  | 72 |
| C=C1CCCCCCCCCC(CO)C1=O (centres unmarked) | cell-free assay, competition with immobilised ligand | 10 µM |  | 69 |
| CC(C)=CC1OC(C)(C)C2C=C3C(=O)C(Cl)=CC(O)C3C3C(O)C4OC4C(=O)C132 (centres unmarked) | cell-free assay, competition with immobilised ligand | 10 µM |  | 79 |
| Nc1ncc2c(n1)-c1c([nH]c3ccc(C4=CCOCC4)cc13)CCC2 | binding, competition with immobilised ligand | 1 µM |  | 40 |
| CNC(=O)C1CCN(c2cc(C)c(F)cc2NC(=O)c2ccc(-c3cc(O)ccc3C)c(C)c2)CC1 | binding, competition with immobilised ligand | 1 µM |  | 100 |
| COc1cc(Nc2nc(C)cc(-c3cnn4nc(OC)ccc34)n2)cc(C(F)(F)F)c1 | binding, competition with immobilised ligand | 1 µM |  | 87 |
| CNS(=O)(=O)Nc1nccc(Cc2c(C)c3ccc(Oc4ncccc4F)cc3oc2=O)c1F | binding, competition with immobilised ligand | 10 µM |  | 99 |
| Cc1cnc2nc1Nc1cccc(c1)COC/C=C/COCc1cc(ccc1OCCN1CCOCC1)N2 | binding, competition with immobilised ligand | 0.1 µM |  | 72 |
| C=CC(=O)N1CCc2ccc(-n3c(=O)ccc4cnc5ccc(-c6cnn(C)c6)cc5c43)cc21 | KINOMEscan | 1 µM | relative to: DMSO control | 96 |
| Cc1cc(NC(=O)[C@H](O)c2cc(F)cc(F)c2)ccc1-c1cnc(N)c(C(=O)NC(C)C)c1 | binding, competition with immobilised ligand | 1 µM |  | 26 |
| C=CC(=O)N1CCCC(n2c(=O)c3ncccc3n(Cc3ccc(Oc4ccccc4)cc3)c2=O)C1 (centres unmarked) | cell-free assay, competition with immobilised ligand | 1 µM |  | 69 |
| CCN1CCN(Cc2ccc(C(=O)Nc3ccc(C)c(NCc4cnc5[nH]ccc5c4OC)c3)cc2C(F)(F)F)CC1 | binding, competition with immobilised ligand | 1 µM |  | 28 |
| COc1cc(Nc2nccc(-c3cnn4nc(OC)ccc34)n2)cc(C(F)(F)F)c1 | binding, competition with immobilised ligand | 1 µM |  | 81 |
| CC(C)(C#N)c1ccc(-c2cnc(Nc3cnccn3)nc2Cl)cc1 | cell-free assay, competition with immobilised ligand | 10 µM |  | 7.8 |
| CN1CCN(Cc2ccc(NC(=O)c3cccc(C#Cc4cnc(N)c5ncccc45)c3)cc2C(F)(F)F)CC1 | cell-free assay, competition with immobilised ligand | 0.5 µM |  | 28 |
| CC(=O)Nc1ccc(-c2ccnc(NCC3CCC3)n2)cc1 | cell-free assay, competition with immobilised ligand | 10 µM |  | 12 |
| CNC1C[S+]2CC[S+]3CC[S+](C1)[Ru-4]321([N]=C=S)[n]2c3ccc(OC)cc3c3c4c(c5cc(F)c[n+]1c5c32)C(=O)NC4=O (centres unmarked) | KinomeScan | 0.1 µM | relative to: untreated | 100 |
| COc1c(Cl)cccc1Nc1c(-c2ccncc2C#C[C@@]2(C)CCCN2C(=O)/C=C/CN(C)C)[nH]c2c1C(=O)NCC2 | binding, competition with immobilised ligand | 3 µM |  | 71 |
| COc1ccc(NC(=O)Nc2ccc3c(c2)C(=O)N(C(C)CO)CC(C)C(CN(C)Cc2ccc4c(c2)OCO4)O3)cc1 (centres unmarked) | binding, competition with immobilised ligand | 10 µM |  | 38 |
| CC(=O)N1c2ccc(-c3ccc(CNC(=O)c4cn5cc(-c6cnc(N)nc6)nc(N6CCOCC6)c5n4)cc3)cc2CC[C@@H]1C | KINOMEscan | 10 µM |  | 6 |

For quick reference, copied from above:
| Structure (SMILES) | assay | setting | scale | remaining binding [%] |
| --- | --- | --- | --- | --- |
| C=CC(=O)N1CCCC(n2c(=O)c3ncccc3n(Cc3ccc(Oc4ccccc4)cc3)c2=O)C1 (centres unmarked) | cell-free assay, competition with immobilised ligand | 1 µM |  | 69 |
| CCN1CCN(Cc2ccc(C(=O)Nc3ccc(C)c(NCc4cnc5[nH]ccc5c4OC)c3)cc2C(F)(F)F)CC1 | binding, competition with immobilised ligand | 1 µM |  | 28 |
